Measured values pooled from the literature.
Every numbered part comes from another study and shows a few of its results, in no order. Changes are numbered by the printed parent chain.

Series 1 — method: universal PBM; form: double-stranded DNA, one strand shown; medium: in vitro; concentration: 600 nM; reading: higher = stronger binding
Target: Sal-like protein 4, full length isoform A (SALL4, Homo sapiens, UniProt Q9UJQ4, residues 1-1053)
UniProt Q9UJQ4, sequence (whole entry, looked up): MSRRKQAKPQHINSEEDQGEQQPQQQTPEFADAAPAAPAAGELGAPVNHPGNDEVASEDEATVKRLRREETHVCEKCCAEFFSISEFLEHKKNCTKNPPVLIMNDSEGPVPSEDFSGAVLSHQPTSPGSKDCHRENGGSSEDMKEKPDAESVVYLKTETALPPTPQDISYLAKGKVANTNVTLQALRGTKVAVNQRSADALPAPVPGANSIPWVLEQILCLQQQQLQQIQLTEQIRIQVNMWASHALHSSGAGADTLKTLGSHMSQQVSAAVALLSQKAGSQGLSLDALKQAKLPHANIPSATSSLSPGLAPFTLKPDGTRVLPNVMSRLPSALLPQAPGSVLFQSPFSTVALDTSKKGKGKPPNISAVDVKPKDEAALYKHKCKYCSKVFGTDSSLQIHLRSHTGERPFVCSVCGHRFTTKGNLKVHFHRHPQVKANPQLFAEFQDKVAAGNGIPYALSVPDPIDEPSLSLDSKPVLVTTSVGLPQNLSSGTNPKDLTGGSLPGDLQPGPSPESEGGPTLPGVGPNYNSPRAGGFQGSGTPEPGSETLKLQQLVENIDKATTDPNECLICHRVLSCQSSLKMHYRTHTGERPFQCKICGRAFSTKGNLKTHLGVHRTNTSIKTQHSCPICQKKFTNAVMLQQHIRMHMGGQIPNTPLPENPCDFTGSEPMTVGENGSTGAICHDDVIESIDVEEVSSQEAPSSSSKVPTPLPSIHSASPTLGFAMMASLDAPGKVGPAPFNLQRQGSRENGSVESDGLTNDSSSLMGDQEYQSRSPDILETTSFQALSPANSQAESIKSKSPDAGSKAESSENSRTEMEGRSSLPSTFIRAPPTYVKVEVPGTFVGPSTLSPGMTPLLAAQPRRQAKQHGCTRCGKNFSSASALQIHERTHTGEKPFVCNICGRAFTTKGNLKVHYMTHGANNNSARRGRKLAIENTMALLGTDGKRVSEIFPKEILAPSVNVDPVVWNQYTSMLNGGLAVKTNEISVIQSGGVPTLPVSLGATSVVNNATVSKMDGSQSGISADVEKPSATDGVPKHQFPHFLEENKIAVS
Setting: 8-mer, flanks averaged, mean of replicates
| Oligonucleotide | E-score |
| --- | --- |
| ATACCCGG | -0.224 |
| GAAAAGGA | 0.1 |
| AGAGAAGC | -0.0857 |
| TAATCAAA | 0.318 |
| AAGGTCCT | -0.0863 |
| CTATGATC | 0.0906 |
| ATCATCTC | 0.218 |
| CCATGCTA | -0.036 |
| CTGCTACC | -0.0482 |

Series 2 — target: CEP164, C-terminal peptide (human); method: DHFR complementation, deep sequencing; medium: yeast; baseline: wild type; reading: higher = weaker binding
Setting: single substitutions, model-inferred values
Starting sequence: PDZK1, PDZ domain 2 (human); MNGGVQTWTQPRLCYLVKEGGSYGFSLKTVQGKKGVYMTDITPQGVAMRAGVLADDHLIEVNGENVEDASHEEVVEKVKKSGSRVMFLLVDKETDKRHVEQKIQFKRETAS; partner HNRVKVYRF
| Variant | binding free energy change [kcal/mol] |
| --- | --- |
| V36W | 1.39 |
| H57L | -0.521 |
| T42V | -0.219 |
| T39F | 0.317 |
| L16D | 1.57 |
| M38V | 0.342 |
| L58H | 0.26 |
| E64C | 0.218 |

Series 3 — target: CCNB1, cyclin fold, Cln2 fusion (human); method: yeast growth competition, sequencing; medium: yeast; setting: strong parent motif; baseline: not given; reading: higher = stronger binding
Starting sequence: RBL2 docking peptide (human); STTRRRLFVENDS
| Variant | normalised enrichment score |
| --- | --- |
| R4E | 0.659 |
| T2S | 1.13 |
| T3R | 0.944 |
| R5W | 0.357 |
| R4S | -0.165 |
| E10N | 0.491 |
| S13I | 1.17 |
| S1Y | 1.06 |
| S13T | 0.498 |
| E10V | 1.39 |

Other studies, line by line
| Molecule | target | assay | test system | setting | scale | measurement | value |
| --- | --- | --- | --- | --- | --- | --- | --- |
| PhoQ, residues 284 288 289 292 302 303 ASVMEA | PhoP, residues 12 14 15 18 19 SEGLL (Escherichia coli, UniProt P23836) | Sort-seq, item: YFP reporter | E. coli | PhoQ-PhoP variant library, together with: 10 µM Mg2+ | baseline: high Mg2+ state, higher = stronger signaling | fold induction | 5.38 |

Excerpt of the above (series 1):
| Oligonucleotide | E-score |
| --- | --- |
| CCATGCTA | -0.036 |
| ATACCCGG | -0.224 |
| GAAAAGGA | 0.1 |
| AAGGTCCT | -0.0863 |
